Measurements collected from several papers.
Each numbered part is a random draw from the data of one study; scales do not carry over between parts.

Study 1
Target: RNA binding protein fox-1 homolog 2, RRM domain, GST-SBP tag (RBFOX2, Homo sapiens, UniProt O43251-10, residues 100-194)
Method: RNA Bind-n-Seq
Form: RNA
Matrix: in vitro
Tested at: 365 nM
Notes: natural RNA segment, single round, ends assumed
Baseline: no-protein control
Reading: higher = stronger binding
Quantity: RBNS enrichment (R)
Constant ends, left off below: GGGAGUUCUACAGUCCGACGAUC … UGGAAUUCUCGGGUGCCAA
Target sequence (chain): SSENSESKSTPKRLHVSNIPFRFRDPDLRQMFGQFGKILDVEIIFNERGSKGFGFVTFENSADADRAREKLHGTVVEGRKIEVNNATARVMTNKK
CCCUUGCUUUAGGCUGUAUAUAGCCCCCCCCAACCCCCCAGCACAGAUCCCUGCCCAUGCUGUUCCCCUUAGCAGCCUGCCUGUUCAUAGAGCGUUUCCCCUCUUGCUAA: 1.66
AAAUAUCUGUAUUAUACUCUAAGCUAUUACAAUGGUACUUAAAAUAAUGUAAAUUUGAAGUCAUUGUUAUAAAGUAAUAAAAGUGGAAAUUACUUAAGUAUUUAAAUUAU: 0.893
UUGACACUUACUUUCCCAUGAACACUUGCAGUUGCUAAGGGACUUUAUUUUGUAACAUAUCAAUUAUAAAUAUUGUAUUUAUCUUUGAAAUUUUGUACAUUGCUUUUCCC: 0.48
GGGCAGCGAGAGGACAGGCUAUGGCUUGCUCCUGGACCUAUACUCCCUUAGCCCCAGUCCCACAGAUCAGGUGGAGACUGGAGUGACAGAGGGCGACUGUACCAAGGCCA: 0.222
GGUGAAGGUGUGUUGUCCUACAUAGAACGGUCCCUUCAGUUACCAUUCUGAUUGCUCUAUGCUGCUUUCCUCCUCUUAAAGUUUCAUGAGCUCUUGGGUUAAAUGGUUUG: 0.458
AAUUGUAGAAGUUGAAACAUGAUCGCUAUAUUUCAAUGUUUAUUCCCGUUCAACGUACUGCCUCUAAGCUUUCCUUUAAUUUCUUUAUUUUUAUUUUUGUUCGAAGCAUG: 4.4
CAUCCCAAAGGACAGCCGCCUGGAGAUGACUUGAGGCCUUACUUAAACCCAGCUCCCUUCUUCCCUAGCCUGGUGCUUCUCCUCUCCUAGCCCCUGUCAUGGUGUCCAGA: 0.593
UUCCUGUCCAGGAGACUCAUGAGGACUGUGUGACCUGCACAAGCCCACACCUGGGCAGGCUGUUGGUGUCUCCUUGGUCCUUAGGCAGAUACUCCCCUGAGUCCCCGAUC: 0.238
GGUCUAUAUUCUGUAUGUGGAUAACAGACCCAAUCAGGAAACGAGCCUUAUGUGUGUCGUUAACAUUUAUAUUUUCAUUCAAAAUAUGUAUUCAGUGUUUAUUUCCUUAA: 0.903
GCAUCACAUAUACUAAGCAUGUGCUCUACCAUCAUGCUAUGCUUCCAGCUCAGGGGGGCACUUUUAAGGAUCUAGAAAACAGAAAUUAAGGAUCUCAUAGUUAUUUUAUU: 1.44
UUGUCAGUGGUUAAAAGUAUUUAACACUCUACUGUUAAUGACAGAUGUUCUGUUUUUAUAACCUACCAAAAGGAAACUAGAGGCUUCUUGGUGAAGAGCAUUUUUGUGAA: 0.403
UAAACCAUGGCUGGGCAUAACUAUUCCGAACUGUCCCCCCAUCAGGAUACAAGAUGCUGAGAGGGCUGCAGGGCCAUUCCAUCAAGCCCCAGGGUGAAAGGGCUGGCAUG: 1.02

Study 2
Target: RING finger protein unkempt homolog, zinc fingers 1-6, GST-SBP tag (UNK, Homo sapiens, UniProt Q9C0B0, residues 30-357)
Method: RNA Bind-n-Seq
Form: RNA
Matrix: in vitro
Tested at: not given
Notes: RNA with constant flanks, ends assumed
Baseline: input RNA pool
Reading: higher = stronger binding
Quantity: bound/input enrichment
Constant ends, left off below: GGGAGUUCUACAGUCCGACGAUC … CAACAGAGGAUUGAGCAUCA
Residues (chain): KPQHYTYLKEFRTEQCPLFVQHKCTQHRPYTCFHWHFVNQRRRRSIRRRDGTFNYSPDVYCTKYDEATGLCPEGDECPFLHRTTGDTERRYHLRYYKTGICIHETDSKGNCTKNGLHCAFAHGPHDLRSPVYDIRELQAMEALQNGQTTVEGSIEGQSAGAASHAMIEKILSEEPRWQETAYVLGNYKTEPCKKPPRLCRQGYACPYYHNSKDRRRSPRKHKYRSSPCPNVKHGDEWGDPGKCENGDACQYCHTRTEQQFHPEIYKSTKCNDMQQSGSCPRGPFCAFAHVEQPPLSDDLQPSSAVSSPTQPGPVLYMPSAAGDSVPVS
UGGCUACUAUAAAACUAUGUACCACUCUCAGAAUAUUCUUAGGCUUUUUUUUUUUCAAGUUACCGAUUUGCUUAAAGUGAGGUUUUUUGGUGUGUGCUUUUUUGUUGUCUUUUGACCCUU: 19.3 ratio
CUGACCGGCGGGUCCCAGAGACCUGCCCCCAAGGUGUCCCACUGUGUGGCUAAGGGUGGGACCGAACCCGGGCUGGGAGAGCCGGGUUAUGGGUUCCAGUGGUGGUUCCGCCGCUUCCUU: 0.18 ratio
ACAAAGCACUUCAUCUAUUUUUACUUGGGUCAAGUUGCAAUCCUCCUCUUCAAGUCGGGCCCGGUGGCCGAGGCGAAGGUGUCCGUGGCGGCGGCAGCGAUGGCAAGCAGGCGGCGUUGC: 0.268 ratio
UGUCUGCCUCAUUCUAAAAUUUACACAGUAGACCAUUUGUCAUCCAUGCUGUCCCACAAACCGUUUUUUGUUUACGAUUUAUGACAGGUUUAUGUUACUUCUAUUUGAAUUUCUAUAUUU: 0.292 ratio
GAAUUGUCCCAUUUGCUGUCUUUAGAGGCCACGGCUUCAUUUCUAUGCGUAAAAAGCUCAUUCCGCAAUGUAGUUAUUUCAGUAUUUAUUUCUAUUAUGGAAUCCCUGGGGUUCGGAAUG: 0.856 ratio
UCUGUUUGUUUUUCUGUUGUUGUAGCUUUUUUUGUCCUGUUAUGUUUUAUCUGUUUGUAUUUCCGAAGGGGGAGGGGAAGUUGUAAUUAUUUCAUCUAAGUCUCCCAUUAUAUAUCUGUG: 3.33 ratio
UGGACAGAAAAGAUAAUGAAGCAGACCGAAGUGCUGUUGCAGCCAAAUCCAAAUGCCAGGACCGAAGAAUUUGUUUAUGAGAAACUGGAUAGAAAAGCACCAAGUCGUAUAAACAACCCG: 0.286 ratio
GAGUUUUCCCCACCAAGGGGACCAUGCACAUGGUAGAAACAUUAGAUUCUGCAUUGACAGCCGCCUUUCCUUGGCCCGGGCCUGUGGUGGGAAGACGGGCAACAAGUAUACCCCACCAGG: 0.208 ratio
UUUUUCUUUUUUUUUUUUUAAUUUUUCCCCCCAACCAUCGUGAUUUGUCUUUUCAUGCAGAUCCGUCCGAAUUCACUGCCAGGUUUCUUCUGCCCACCAAAAUGAUCCAGUCUGGAAUAA: 8.01 ratio
GAUCGGACUUGUGAAUUAUCUAGAAGAAAUUGUCUGCUGUCCUUUUCUAAUCCGGUGAAUUCCGAUGCCUCCGAAGACAAGGACAGCCCUUUCGGUAAUGGUCAAUCCAAUUUUUCUGAG: 0.0748 ratio
UGGUUGCUCCUUUGUCAAACUGGGAUGAAAGCAAUGGCUAUUCCUCUGUUCUUUCAGACCGUAAUGGGAGCUUUUACUGGCUUACAUCAUUACAAUAUAUGUGAAAAACCACGUGCAAGG: 0.147 ratio

Study 3
Target: Fragile X messenger ribonucleoprotein 1, C-terminal low-complexity region (Fmr1, Mus musculus, UniProt P35922)
Method: RNA Bind-n-Seq
Form: RNA
Matrix: in vitro
Tested at: 200 nM
Notes: whole 134-nt RNA, ends assumed
With: 150 mM LiCl
Baseline: input library
Reading: higher = stronger binding
Quantity: log2 enrichment
Each molecule: 7-deaza-guanosine replaces G
Constant ends, left off below: GGGAGUUCUACAGUCCGACGAUC … UGGAAUUCUCGGGUGUCAAGG
ACCAUGCAGGUGGGCAUCUUUGGGAAGUGGGGCAAGGGGGGGAUAGGGAGGGGGGUAACACUUUGGGAACAGGUGGUCCCAGGUCUUUUC: 1.16
CAAGUCCUGUGCUACACAUCGUAUGUACCGAAUCGGGAAAAAGGGAAAGGGAGGGAAAGUAUUAUGUUACGCCGUUCGGAUCUGCACUUC: -0.337
CCUGUGCUACACAUCGUAUGUACCGAAUCGGGGUUUUUUUGGGGAAAAAGGGGUUUGGGGAAAGUAUUAUGUUACGCCGUUCGGAUCUGC: -2.04
UCAAGUCCUGUGCUACACAUCGUAUGUACCGAAUCGGUUUUUGGAAAAAGGUGGAAAGUAUUAUGUUACGCCGUUCGGAUCUGCACUUCC: -1.05
UGGCCCUGGUGGCAUGCGGGGAGGAAGUGGUGGCCUCAUGGAUCGUGGUGGUCCCGGUGGAAUGUUCAGAGGUGGCCGUGGUGGAGACAG: -0.127
CCUGUGCUACACAUCGUAUGUACCGAAUCGGGAAAAAAAGGAAAAAAAGGGGAAAAAAAGGAAAGUAUUAUGUUACGCCGUUCGGAUCUG: -0.0238
CAAGUCCUGUGCUACACAUCGUAUGUACCGAAUCGGGUUUUUGGGUGGGUUUGGGAAAGUAUUAUGUUACGCCGUUCGGAUCUGCACUUC: -1.37
UGCUGGAGAUGCAAUAUAUGAGGUGGUGAGUCUACAGCGAGAGUCUGACAAGGAGGAACCAGUCACUCCUACUAGUGGAGGGGGUCCAAU: -4.45
AAGUCCUGUGCUACACAUCGUAUGUACCGAAUCGGUUUUGGGGUUUUGGGGUUUUGGAAAGUAUUAUGUUACGCCGUUCGGAUCUGCACU: -1.02
GUCCUGUGCUACACAUCGUAUGUACCGAAUCAAAUUUAAAUUUUUAAAUUUUUUUAAAAAAGUAUUAUGUUACGCCGUUCGGAUCUGCAC: -2.76
CCUGUGCUACACAUCGUAUGUACCGAAUCGGUUUUUUUGGGGUUUUUUUGGUUUUUUUGGGAAAGUAUUAUGUUACGCCGUUCGGAUCUG: -0.173

Study 4
Target: Histone acetyltransferase KAT6A, winged helix 1, GST fusion (KAT6A, Homo sapiens, UniProt Q92794, residues 1-85)
Method: protein binding microarray
Form: double-stranded DNA, one strand shown
Matrix: in vitro
Tested at: not given
Notes: 8-mer, flanks averaged, mean of 2 arrays, mostly near background
Baseline: not given
Reading: higher = stronger binding
Quantity: E-score
Construct (chain): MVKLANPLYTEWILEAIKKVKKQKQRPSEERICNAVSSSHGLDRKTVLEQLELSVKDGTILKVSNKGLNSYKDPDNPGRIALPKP
ACTTTACG: -0.0223
ATAATATA: -0.107
GGGCGTAC: 0.176
GCCAAACC: -0.0385
CTCACGGC: 0.375
CGTGAATA: -0.0121
CGCTAACA: 0.052
CTATGACA: -0.0254
CCTTCCCG: 0.243
AAGAAGCC: 0.0459
CAGCAGAC: -0.0822
CAGATGAG: -0.28
AGTGTGGA: -0.163
AAATGAGA: -0.225
CCAAAGAC: -0.143
AAGCGATA: 0.0852
ATCATTAC: 0.0612
AACAGGCA: -0.0379
AACGACAG: -0.0554
CATGGAGC: -0.0112
CCACTCGG: -0.12
